# Assay results from different studies.
# Numbered parts are unrelated; each lists some results of a single study. Substitutions count along the parent as printed.

# Block 1 — method: RNAcompete; molecule type: RNA; sample: in vitro; tested at: 20 nM; setting: 7-mer, probes averaged, single round; relative to: mean of 7-mers; reading: higher = stronger binding
# Target: PABPC1L2, full length, GST fusion (mouse, UniProt A0ABA7IW68)
# Construct (chain): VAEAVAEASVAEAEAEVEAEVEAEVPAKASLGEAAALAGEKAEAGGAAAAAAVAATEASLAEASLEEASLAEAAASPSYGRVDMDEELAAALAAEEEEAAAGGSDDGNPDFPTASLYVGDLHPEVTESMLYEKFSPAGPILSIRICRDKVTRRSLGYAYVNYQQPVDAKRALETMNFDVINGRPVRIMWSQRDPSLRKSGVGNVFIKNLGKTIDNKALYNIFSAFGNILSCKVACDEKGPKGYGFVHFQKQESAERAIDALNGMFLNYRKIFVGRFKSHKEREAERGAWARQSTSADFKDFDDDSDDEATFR
Strand,7-mer Z-score
AAAAAGU,17.8
GCCACUU,-0.193
GGAGGCC,0.095
AAGGGCU,0.387
CGUCCCA,-0.209
AGGAGUA,0.0551
UGAGCAG,-0.18
UCCGCAG,-0.296

# Block 2 — target: CREM, bZIP domain (human); method: DHFR protein complementation; sample: yeast; relative to: wild-type JUN-FOS pair; reading: higher = stronger binding
# Setting: single substitutions, most at no-binding floor
# Starting sequence: JUN, bZIP domain (human); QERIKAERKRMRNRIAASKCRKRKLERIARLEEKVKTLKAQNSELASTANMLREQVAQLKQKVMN; partner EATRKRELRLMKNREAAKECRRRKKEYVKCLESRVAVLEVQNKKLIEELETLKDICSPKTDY
Change,binding fitness
I28V,-1.47 natural log
I28G,-1.47 natural log
K36R,-1.35 natural log
L38N,-1.6 natural log
M51E,-1.27 natural log
A49W,-1.5 natural log
L38T,-1.51 natural log
A49D,-1.44 natural log

# Further values, each from its own experiment
# P1: PafA, mature enzyme, eGFP fusion (Elizabethkingia meningoseptica, UniProt Q9KJX5); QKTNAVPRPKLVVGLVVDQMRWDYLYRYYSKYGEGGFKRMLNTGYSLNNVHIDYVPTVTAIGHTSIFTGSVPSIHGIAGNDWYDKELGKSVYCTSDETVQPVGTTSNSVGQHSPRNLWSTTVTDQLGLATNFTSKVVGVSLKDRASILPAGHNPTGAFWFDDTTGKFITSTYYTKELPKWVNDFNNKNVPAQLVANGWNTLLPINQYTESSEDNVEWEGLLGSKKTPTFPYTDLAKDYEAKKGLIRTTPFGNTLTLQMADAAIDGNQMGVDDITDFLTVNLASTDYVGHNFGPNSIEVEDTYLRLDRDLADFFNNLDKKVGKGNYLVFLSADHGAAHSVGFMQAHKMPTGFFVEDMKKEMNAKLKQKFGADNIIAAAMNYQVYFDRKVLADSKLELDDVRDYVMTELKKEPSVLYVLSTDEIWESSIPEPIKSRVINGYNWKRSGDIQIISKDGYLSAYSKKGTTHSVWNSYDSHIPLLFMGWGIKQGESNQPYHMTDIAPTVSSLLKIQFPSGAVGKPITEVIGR
Substance,target,assay,test system,conditions,how to read,measurement,value
"PhoQ, residues 284 288 289 292 302 303 ASVMEA","PhoP, residues 12 14 15 18 19 GHCSL (Escherichia coli, UniProt P23836)","Sort-seq, item: YFP reporter",E. coli,"PhoQ-PhoP variant library, added: 10 µM Mg2+","relative to: high Mg2+ state, higher = stronger signaling",fold induction,15.5
P1 D453V,"vanadate, free oxyanion",microfluidic competitive inhibition,"in vitro, cell-free expressed","not given, derived from inhibition constants, unchanged parent 676 nM",lower = stronger binding,oxyanion analog dissociation constant,491 nM

# Some of these lines once more (block 1):
Strand,7-mer Z-score
GCCACUU,-0.193
GGAGGCC,0.095
AAGGGCU,0.387
